Measurements of several laboratories.
Numbered parts are unrelated; each lists some results of a single study.

Sample 1
Target: Interferon regulatory factor 5, full length, phosphomimetic (IRF5, Homo sapiens, UniProt Q13568-2, residues 1-514, S451D/S453D/S456D/S462D)
Technique: protein-binding microarray
Molecule type: double-stranded DNA, one strand shown
Matrix: in vitro
Concentration: 940 nM top
Setting: 60-bp whole probe
Together with: salmon DNA 0.4 mg/ml
Baseline: random background probes
Reading: higher = stronger binding
Endpoint: fitted relative affinity
Constant ends, left off below: GCCTAGCAC … GTCTTGATTCGCTTGACGCTGCTG
TTAGGTTTCGACACAGGGTTAGTGCTA: 9.09 z-score
GACGGGATCGGTCTCGGGACGTGCTAG: 0.63 z-score
GACGAACTGGGTCTCGGGACGTGCTAG: 0.124 z-score
TCCAGGCTGGTCTCTAACTCAGTGCTA: -0.0332 z-score
ATATATATTATATATACACATGTGCTA: 0.42 z-score
TAAGAACTGAGTTTCGATTAGTGCTAG: 8.09 z-score
AAACAAGTTTCACGTCTTATAGTGCTA: 1.84 z-score
TTAGGTTTCCTTATCATTTAGTGCTAG: 1.84 z-score
GACGATTTGAGTATCGAGACGTGCTAG: 2.03 z-score
TTAGGACTTCTTTTCCTTTAGTGCTAG: 0.43 z-score
TCATTTCTGTTTTTGCTACTGTGCTAG: 1.87 z-score
TTTTCATTATTGTCTCCCCCAGTGCTA: 2.25 z-score
TGGGCTACCGGGTCCCTCTTGTGCTAG: -0.744 z-score
GACGATTTCATTTTCGAGACGTGCTAG: 1.78 z-score
TTATGTATCCTACTGCTTTAGTGCTAG: 0.0676 z-score
TTAGATATCGGGTTTCGATTAGTGCTA: 5.23 z-score
GAAGGACTGGGGTTTCGGGACGTGCTA: 1.37 z-score
GACAGACTGGGTTTCGGGACGTGCTAG: 3.05 z-score
GACGAACTGAGTATCGAGGCGTGCTAG: 0.813 z-score
TTAGATCTCAGGCTCGATTAGTGCTAG: -0.182 z-score
TATTGTCTCCCCCATCTTGTTGTGCTA: 1.12 z-score
TTAGGACCGGACTTTCGGTTAGTGCTA: 2.46 z-score
TTAGATATCAATTTCGATTAGTGCTAG: 1.41 z-score
TTAAAACTGAGTATCGATTAGTGCTAG: 4.87 z-score

Sample 2
Target: Histone acetyltransferase KAT6A, winged helix 2, GST fusion (KAT6A, Homo sapiens, UniProt Q92794, residues 85-181)
Technique: protein binding microarray
Molecule type: double-stranded DNA, one strand shown
Matrix: in vitro
Concentration: not given
Setting: 8-mer, flanks averaged, mean of 2 arrays, mostly near background
Baseline: not given
Reading: higher = stronger binding
Endpoint: E-score
Construct (chain): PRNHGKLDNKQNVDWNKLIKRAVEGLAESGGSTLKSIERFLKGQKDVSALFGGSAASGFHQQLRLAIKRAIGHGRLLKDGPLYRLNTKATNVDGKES
GTCAGCGA: -0.108
CAACAAGG: 0.0884
ATAACGAA: 0.0493
CGCGACTC: 0.0616
GCCCGCGA: 0.155
GAGTCGCC: 0.00375
GCACTCTA: -0.111
CCGGATGA: 0.182
ATGACGAA: 0.0442
AGTGTCTG: 0.125
GATCCTCA: -0.0159
CCTGATCA: 0.0121
GCTTCGAA: 0.122
ACGAAGTG: 0.135
GCAATATA: -0.0491
CGAACCAA: 0.0559
TGAGTGCA: -0.0414
CGCTTTGA: -0.0741
CTGCGTAC: 0.0928
AAACAGAT: -0.0869
AGGGCGTA: -0.0507
CTGCGCAC: 0.16
TACCACTA: -0.0647
GGGCTACC: -0.0499
CATGAACG: 0.0214

Sample 3
Target: RNA binding protein fox-1 homolog 2, RRM domain, GST-SBP tag (RBFOX2, Homo sapiens, UniProt O43251-10, residues 100-194)
Technique: RNA Bind-n-Seq
Molecule type: RNA
Matrix: in vitro
Concentration: 365 nM
Setting: natural RNA segment, single round, ends assumed
Baseline: no-protein control
Reading: higher = stronger binding
Endpoint: RBNS enrichment (R)
Constant ends, left off below: GGGAGUUCUACAGUCCGACGAUC … UGGAAUUCUCGGGUGCCAA
Construct (chain): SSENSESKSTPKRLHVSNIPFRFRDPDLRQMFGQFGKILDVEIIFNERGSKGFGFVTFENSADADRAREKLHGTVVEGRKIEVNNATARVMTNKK
CAGUUACCAGCCUCCUUCCUGCUUCUCUGCCAGGCCACAGAGAAAGCCUUGGAAGGCUGCUUGCUCAUCUCACACCAUGCCUGGGCCAUGCCUUCCUCACCUCUGGAGCA: 0.874
UUUUACCUGGCCUGUUCUGAUAAAGAGGCAUUUAUUAGCCAAGCAACCAUAAGACUCUAGUCAAAAGCACUCGUGCAGAUAUGCUGCAUAUGAGUAAGAAAUUGCAAUUU: 0.496
UCAUUCAGUCAGAAUUUAGGAUUCAGUCAUUGGCAGGUAUCUAUGCAUUCGUAGAACUUCUAAGGGUCCCAGGAUCACUUUUAAGGGAUUUUUUUUUUAUAGUUUAAAUA: 0.593
UAAAUAAUAUUUAAGCUUGUGCCCAUGUUGGCCGGGCAACUUUUUUCAAUGGUGCUUAUUAGAAGAAGUUUUUUCAUCUUGUCAUUUUAAGAAAAUAAAACUGGAAAUUG: 0.473
AAGCCAUUGUGCUAAGAUCUAAUCUGAGGACACUAUAAUGGCCCUGUCGUCAGGGAAGCCCGUGAUCGCUCGUUUUCAGGGGUCUUACCGGUCAGCAACCUUGGCAUUGA: 0.437
UAACUGAUGAUAAAACUAAUGGCAGAAAACAAAUUGAACAAUUUCUAUGUAAUGUACAGAUACUAGCAUUGCGCAUAUAGUCUGCUUUCUGUUCCUCCAGAAUUUGAGUC: 0.465
AGAGAAUGAGAAGUAGCUAGCUAGUUCAAAUGUAUAUGUGUGUGUAUGCAUAGAGCAUCUCCCCUGCCGGGUGUGUGAAUAACAUUGAAGCCCUCUGAGAAAGCAGGGCA: 0.605
GGCCUGCUGAUAAGAUACCUGCUGGUGAGCCCUGAUGUGGGACAUACGUGCAGAUAGGGGGCAGGGUUCGUUUACAGUGCCAGCAAGCAUGGAGUUGUCAGUAUUGGAGU: 27.3
UGACCUAACAGGACAGAACUUUCUCCAAUUACUGGGUGAGUCAGAGCUGCACUGGUGACUCACUUCAAUGUGUCAUUUCCGGCUGCUGUAUGUGAGCAGUGGACACGUGG: 2.89
UAUUAAUCAGGGGCUGGAGGAGUAUACAUGAUUCUUGUGUUCAUGUUGUCAUUUGAAACUCUUCACAUAAAAUUUUCUAAUAUUCAUUUGGAAAACCUCUCCACUGGAGA: 0.368
CUUCUAGAGCAAGGAAUUGACUUUUAGGAGCCGUUCUCCCCACAAGACACCACAUGACAAGGGGUAUAAGCCCCAGCCCUGCUCAUUCCCACUCACCAGCUGAGGUCUGU: 0.423
AGUAGGCCCCUGGUCAGAAGUGCCAUCUCACCAGUGGUCUUCAUUCUUCCUCAUUCAUUCUUUAUCAUCCUGUGUUCUGUUUAGUUGCAACAAUCUCUUGUGACUAAUGU: 0.309

Sample 4
Target: TAR DNA-binding protein 43, full length, His tag (TARDBP, Homo sapiens, UniProt Q13148, residues 1-414)
Technique: RNA Bind-n-Seq
Molecule type: RNA
Matrix: in vitro
Concentration: 20 nM
Setting: 6-mer, flanks averaged, single round
Together with: 150 mM LiCl
Baseline: input library
Reading: higher = stronger binding
Endpoint: 6-mer enrichment (R)
AAGUGA: 0.953
ACUGGC: 0.893
GUCCAC: 0.9
AAGCCG: 0.866
GCCGUA: 0.912
GGUGAU: 1.15
GCAAUA: 0.889
ACGUUA: 0.895
CCAUUA: 0.927
GCAGUA: 0.955
AACUGU: 0.91
UCAUUA: 0.934
CAUUAC: 0.882
UAGCUC: 0.863
UAUCGC: 0.86
ACAGGC: 0.876
UACCUU: 0.962
CGAGAU: 0.904
GGAAGU: 1.08

Sample 5
Target: RING finger protein unkempt homolog, zinc fingers 1-6, GST-SBP tag (UNK, Homo sapiens, UniProt Q9C0B0, residues 30-357)
Technique: RNA Bind-n-Seq
Molecule type: RNA
Matrix: in vitro
Concentration: not given
Setting: RNA with constant flanks, human-mouse chimeric sites, ends assumed
Baseline: input RNA pool
Reading: higher = stronger binding
Endpoint: bound/input enrichment
Constant ends, left off below: GGGAGUUCUACAGUCCGACGAUC … CAACAGAGGAUUGAGCAUCA
Residues (chain): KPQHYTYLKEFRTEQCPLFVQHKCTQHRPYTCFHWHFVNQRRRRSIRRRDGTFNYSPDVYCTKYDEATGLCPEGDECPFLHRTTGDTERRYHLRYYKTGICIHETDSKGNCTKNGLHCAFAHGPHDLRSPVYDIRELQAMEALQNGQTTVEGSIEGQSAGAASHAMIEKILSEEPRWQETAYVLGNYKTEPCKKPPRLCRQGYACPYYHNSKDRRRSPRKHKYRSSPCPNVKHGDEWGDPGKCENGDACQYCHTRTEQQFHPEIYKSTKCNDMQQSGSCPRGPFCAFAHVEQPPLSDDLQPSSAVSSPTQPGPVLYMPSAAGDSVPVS
GUUCGGCUCUGGGAUCAUGCCACAAUGACAGAAGUGAAAUCUCUAAAUUUUAAUAUGUCUGUUAGUAGCAUGGAGUAUAUUCCUGAAGGAGAGAUUUUGGUUAUUACUUAUGGACGAUCU: 0.426 ratio
GCACUUCUCAAAUACUGGCCAAAGACUCACAGUCCAAAAGAAGUAAUGUUCUUAAAUGAAUUAGAAGAAAUUUUAGAUGUCAUUGAACCAUCAGAGUUUGUGAAGAUCAUGGAGCCUCUU: 0.3 ratio
GUGCCCUUCUCGCUGCUGCGGAGCCCGAGCUGGGAACACCCCUUCCGCUGGUACCCUGCACACAGCCGCCUCUUCGAUCAAGCUUUCGGGGUGCCCCGGUUGCCCGAGGAGUGGUCGCAG: 0.0634 ratio
AUCAAAUACUUUGGGGACAUCAUUAGUGUGGGACAGAGACUGUUGCAAGGAGCUCGGAUCUUAGGGAUUCCAGUUAUUGUAACAGAACAAUACCCUAAAGGACUUGGCAGCACCGUUCAA: 0.165 ratio
UAAGUUAUUUUGUACAGCUUUGUAAAUUCUUAACAUUUUUAUAUUGCACAUUUUAUGUUGUUUGGGUAAUUUGGUUCAUACAUGGCCUAGCUAAGGUAAUGAACAUCUUUUUCAGUAAUU: 0.517 ratio
CUGAGGAUACCACUGAAGAGACCUUAAAAGAAUCAUUUGAGGGCUCUGUUCGUGCAAGAAUAGUCACUGAUCGGGAAAACUGGGUCCCCAAAGGGUUUUGGUUUUGUGACUUUAAUAGUG: 0.353 ratio
ACAGUUAUAUUGUUGAGUUUCAUUUUCAUAUAUUCUUGUAGUGUCUGCUUGCCUGUGACUUCUGGUAAAAUAAGACUUUAAAAUUACAAUAUUUUAGCAUGGUAUUUAACAUUUUCUAAA: 6.97 ratio
GAGCGUCUUGCCCGCACCGGGAUCAUAGUGACCACUAGUGAGGCUGUCCUCCUACAGCUGGUGGCUGAUAAGGACCACCCGAAGUUCAAGGAAAUUCAGAACCUAAUUAAGGCGAGUGCC: 0.147 ratio
CUGAGGAAUACCACUGAGAGACCUUAAAAGAAUCAUUUGAGGGCUCUGUUCGUGCAAGAAUAGUCACUGAUCGGGAAACUGGUUCUUCCAAAGGGUUUGGUUUUGUAGACUUUAAUAGUG: 0.769 ratio
AAAGCCCAAGUAUUUUGAAAAAACUCGAACAGAUUUAACAAGGGUAGCCAGCUUGGAGUCUAGCAACUUGCCAAUGUGUUUACCAAUCUGGGGGCUUUGUUUUUCUUUCUUCUUUCAAAU: 0.275 ratio
ACUCAGAGAUCCACCUCCCAAAGUGCUGGGAGUAAAGGUGUGGCCACCACACCUAACUUGAUGGAUAUUUUAUAAAGUUAAUAUGAAUGAACUCUUGCGUCCAGGGAAGAAAGAUUUGUU: 0.309 ratio
